Measurements pooled from the literature.
A part holds a random share of what one study measured.

Sample 1 — technique: universal PBM; form: double-stranded DNA, one strand shown; sample: in vitro; tested at: 600 nM; direction: higher = stronger binding
Target: Sal-like protein 4, full length isoform A (SALL4, Homo sapiens, UniProt Q9UJQ4, residues 1-1053)
Sequence of UniProt Q9UJQ4 (whole entry, looked up): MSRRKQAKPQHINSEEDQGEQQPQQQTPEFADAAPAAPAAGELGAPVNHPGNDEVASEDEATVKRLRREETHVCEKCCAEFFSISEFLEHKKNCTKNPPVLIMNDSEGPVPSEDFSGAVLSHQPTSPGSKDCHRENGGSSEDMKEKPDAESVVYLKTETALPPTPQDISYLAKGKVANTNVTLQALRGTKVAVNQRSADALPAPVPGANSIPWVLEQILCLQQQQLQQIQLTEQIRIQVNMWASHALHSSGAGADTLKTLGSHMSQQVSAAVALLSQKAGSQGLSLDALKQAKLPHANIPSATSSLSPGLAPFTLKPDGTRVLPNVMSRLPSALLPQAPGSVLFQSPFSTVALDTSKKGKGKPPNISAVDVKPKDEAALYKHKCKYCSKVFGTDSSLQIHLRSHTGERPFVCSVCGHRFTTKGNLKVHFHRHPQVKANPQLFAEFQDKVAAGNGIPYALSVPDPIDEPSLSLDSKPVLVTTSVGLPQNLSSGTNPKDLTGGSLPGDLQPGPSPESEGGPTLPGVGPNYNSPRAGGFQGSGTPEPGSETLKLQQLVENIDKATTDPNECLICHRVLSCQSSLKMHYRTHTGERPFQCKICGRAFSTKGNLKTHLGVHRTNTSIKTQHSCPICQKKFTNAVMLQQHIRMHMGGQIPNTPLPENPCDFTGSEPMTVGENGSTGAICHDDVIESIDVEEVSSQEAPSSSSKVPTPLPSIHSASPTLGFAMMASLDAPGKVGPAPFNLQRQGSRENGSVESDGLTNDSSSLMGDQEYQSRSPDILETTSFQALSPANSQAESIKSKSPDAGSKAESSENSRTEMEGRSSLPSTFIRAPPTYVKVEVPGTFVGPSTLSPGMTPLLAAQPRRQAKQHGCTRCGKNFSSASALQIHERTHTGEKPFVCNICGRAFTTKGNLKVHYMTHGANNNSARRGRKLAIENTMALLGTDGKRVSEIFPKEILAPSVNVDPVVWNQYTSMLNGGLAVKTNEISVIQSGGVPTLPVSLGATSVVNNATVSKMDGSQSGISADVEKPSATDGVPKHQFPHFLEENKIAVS
Setting: 8-mer, flanks averaged, mean of replicates
| Sequence | E-score |
| --- | --- |
| AAAGATCG | 0.0142 |
| AAACTAGC | -0.0717 |
| CGTGTAGA | 0.0631 |
| CCTGCGCA | -0.208 |
| CTACTCGA | -0.00741 |
| GAGTGTTA | 0.194 |
| ATCTAGGC | -0.0219 |
| CTGCAGAC | -0.142 |
| GGTTAAAC | 0.0967 |
| CGTATCCA | -0.0656 |
| AAGGCATT | 0.0189 |
| CAGGAGAC | -0.183 |
| CGATTAGA | 0.0908 |
| ATCTGAGC | -0.0481 |
| CATATGCC | 0.0798 |
| GGGGACTA | -0.0967 |
| AAACCATT | 0.193 |
| CCAGCCTA | -0.27 |
| AGCTCCGG | -0.241 |
| CCCGCACA | -0.253 |
| GGAAATCC | -0.0677 |

Sample 2 — technique: RNA Bind-n-Seq; form: RNA; sample: in vitro; tested at: 365 nM; relative to: no-protein control; direction: higher = stronger binding
Target: RNA binding protein fox-1 homolog 2, RRM domain, GST-SBP tag (RBFOX2, Homo sapiens, UniProt O43251-10, residues 100-194)
Setting: natural RNA segment, single round, ends assumed
Constant ends, left off below: GGGAGUUCUACAGUCCGACGAUC … UGGAAUUCUCGGGUGCCAA
Construct (chain): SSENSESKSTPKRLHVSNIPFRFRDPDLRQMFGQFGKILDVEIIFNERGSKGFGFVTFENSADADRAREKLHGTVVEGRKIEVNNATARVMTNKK
| Sequence | RBNS enrichment (R) |
| --- | --- |
| AGGCUUGCAGCAAUAUAGCCUGGACCCAGAAAAGGGAAAACGAUAAGGAAAUUCUGUCUGGUAGGUGCAAAGGGCUUCAUGGAUUUGGAAACCUGGAGGCAGGAACAUAG | 0.542 |
| GGACUCCCUUGGCUCAGAGUGUGGUGCUAGAAACUGGUCCCCAGCCCAGUCCCAGUACUGCCAUCUUUGCAUCCACCCCUGCAAGUCUCCAGAGGGCUUCCUGCCACAGA | 0.284 |
| AACUUUUGUGCUCCAGAAAAUUUUCUAUUCUGUAAGUCUGAGCGUAAAACUUCAAGUAUUAAAAUAAUUUGUACAUGUAGAGAGAAAAAUGACUUUUUCAAAAAUAUACA | 0.966 |
| CAUCUGGCUUUCUCAGCCACUGUUCAUCACCAGGGGUUUUAGGAGGAAGGCUUGGCUCCUGUCUUCCCAGACCCACCAUGCCUGGAGAGGUCAGGAUGGAACUACCUCAU | 0.326 |
| UAUCAAAUGAAAUAUUACAGCACCUAGAAAAUAAUUUAGUUUUGCUUGCUUCCAUUGAUCAGUCUUUUACUUGAGGCAUUAAAUAUCUAAUUAAAUCGUGAAAUGGCAGU | 0.342 |
| UUCCGUUGUCAGCUUCUCCCCCUUCAGCCUGUUUCUGCAGCAGCCAGGGUUCUCCCCCCUACACCCUCUGCAGGUGGAGAGAGAGAAGCUGGGCCCAGCCGGGCCGUGCC | 4 |
| AGGCCACCUGGCCAGGCCUUCUACCUGGGCAGCACCUCUGCCGACGCCGUCCCACCAGCUUCACUCUCUCCGUCUGUUUUUGCAACUAGGUAUUUCUAACGCCAGCACAC | 0.526 |
| UAUUUUUCUUCCAAACUUCAUAUAUGUCUAUCAGGUAAUAAUAGGCUUGAAAAUUGAUAUCCUGUGGUGCUAAAGUACAGUAGAAAGAGAGGAGAAGUGUAUACAUGUUU | 0.5 |
| AGUAGCAUGUCAGCUGCUGAUGAAGUAGAAGGCCUGGGUGGCCUGGAAAAAGGACACAGAAUGGGGCUUGUGGGAAAGACCGGGACAAUAAAGCCCACCAUGUAAACCAA | 0.865 |
| AAAACAAGUUUAGAUUUUAAUCAGAUUUGUAGGGUUUCUAACUUUACAGAAUUGCCUGUUUGUUUCAAUGUCUCCCUCCACUUGGCUCUUAGGGGAAUUAAGGACAGGCC | 0.309 |
| ACUUGAAGAAGUGUCCUCAGCAUGUGCAGAGUCUACUACCCAGUACCAGUCGUGAGUCUGCAGGCUCCAGUGUUCUGUAGUAGUGUUUAUGGGCCUUGGGAGUACUUCUC | 3.56 |
| UUAUUUUUAUACUUUGAUUUUCACUAGUUUUGCUUUUAUGUAAAAGUCAAAAUAAACUUUUCAUCCUAAAGGAAAUCUUGUUGGAUCUCUUUUAGCCAAGGGAAUCAGCU | 0.727 |

Sample 3 — technique: RNA Bind-n-Seq; form: RNA; sample: in vitro; tested at: 200 nM; setting: whole 134-nt RNA, ends assumed; together with: 150 mM LiCl; relative to: input library; direction: higher = stronger binding; all molecules: 7-deaza-guanosine replaces G
Target: Ras GTPase-activating protein-binding protein 1, full length (G3BP1, Homo sapiens, UniProt Q13283)
Sequence of UniProt Q13283 (whole entry, looked up): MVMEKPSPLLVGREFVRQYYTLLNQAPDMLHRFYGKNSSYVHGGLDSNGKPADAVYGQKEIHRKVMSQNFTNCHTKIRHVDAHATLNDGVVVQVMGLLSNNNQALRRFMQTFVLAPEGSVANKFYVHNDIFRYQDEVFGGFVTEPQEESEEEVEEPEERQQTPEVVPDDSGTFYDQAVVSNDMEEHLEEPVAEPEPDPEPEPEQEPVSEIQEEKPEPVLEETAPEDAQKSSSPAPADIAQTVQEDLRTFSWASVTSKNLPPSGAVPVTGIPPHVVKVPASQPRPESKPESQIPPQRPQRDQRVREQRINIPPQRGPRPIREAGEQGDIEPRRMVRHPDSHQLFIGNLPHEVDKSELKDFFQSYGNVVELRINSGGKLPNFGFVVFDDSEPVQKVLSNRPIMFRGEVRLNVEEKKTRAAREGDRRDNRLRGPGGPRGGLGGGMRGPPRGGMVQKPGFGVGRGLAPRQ
Constant ends, left off below: GGGAGUUCUACAGUCCGACGAUC … UGGAAUUCUCGGGUGUCAAGG
| Sequence | log2 enrichment |
| --- | --- |
| CUCAAGUCCUGUGCUACACAUCGUAUGUACCGAAUCGGUUUGGUUUGGAAAGGAAAGUAUUAUGUUACGCCGUUCGGAUCUGCACUUCCA | 0.302 |
| GCAGGAAGUAAAAACAAAUGGAAAUGCUUCGGAUAGUGGCAGGGGUGGGGGUUGCUAAGGAAAGGGUGGGAAAGGAGUGGGUAAAGAGUU | 0.372 |
| UGGCCCUGGUGGCAUGCGGGGAGGAAGAGGUGGCCUCAUGGAUCGUGGUGGUCCCGGUGGAAUGUUCAGACGUGGCCGUGGUGGAGACAG | 0.122 |
| UGGCCCUGGUGGCAUGCGGGGAGGAAGAGGUGGCCUCAUGGAUCGUGGUGGUCCCGGUGGAAUGUUCAGAGGUGGCCGUGGUCGAGACAG | -0.22 |
| AAGUCCUGUGCUACACAUCGUAUGUACCGAAUCGGAAAAGGGAAAAGGGAAAAGGGAAAGUAUUAUGUUACGCCGUUCGGAUCUGCACUU | -0.39 |
| UUAGGGUCAUGUGAAGGUGGUGCGCUACUUAGUCAAAGAAGUCAAUCAGUUUCCAUCAGAUUCUGAAUGUAUGAGAUACAUAGCAACCAU | -2.1 |
| UCCUGUGCUACACAUCGUAUGUACCGAAUCGGGUUUUUUGGGUUUUUUGGUUUUUUGGGGAAAGUAUUAUGUUACGCCGUUCGGAUCUGC | -0.226 |
| UCAAGUCCUGUGCUACACAUCGUAUGUACCGAAUCGGGUGGGUUUUUGGGAGGGAAAGUAUUAUGUUACGCCGUUCGGAUCUGCACUUCC | 0.411 |
| UUCUUGCCUAUGCUGUGCGCCACACCAUCCAGGUGUACCGGCUCUCCAAGUACAACACGGAAGAAUUCAUCACAGUCUACCCCACCGACC | 0.968 |
| CACAGACAACACGCACCCACACAGACACAGAGGGAAGGGGUUGGGAUGGGGACAGAGUGCACAGCAGGGCGGGGUAGGACCCCAGCCCCU | -0.0925 |
| AGUCCUGUGCUACACAUCGUAUGUACCGAAUCGGAAAGGAAAAAAAGGUUUUUUUGGAAAGUAUUAUGUUACGCCGUUCGGAUCUGCACU | -2.05 |

Sample 4 — technique: protein binding microarray; form: double-stranded DNA, one strand shown; sample: in vitro; tested at: not given; relative to: not given; direction: higher = stronger binding
Target: Histone acetyltransferase KAT6A, winged helix 1, GST fusion (KAT6A, Homo sapiens, UniProt Q92794, residues 1-85)
Setting: 8-mer, flanks averaged, mean of 2 arrays, mostly near background
Target sequence (chain): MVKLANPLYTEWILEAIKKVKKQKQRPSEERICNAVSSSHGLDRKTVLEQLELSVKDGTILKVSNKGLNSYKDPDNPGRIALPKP
| Sequence | E-score |
| --- | --- |
| ATGATCCC | 0.0912 |
| AAGTGTTA | -0.206 |
| ATGGTATA | -0.207 |
| AAGGTATA | -0.186 |
| CAGGATGC | -0.0742 |
| ACCCTCTG | -0.178 |
| CGGAAACA | 0.27 |
| GCAGGGCC | 0.0705 |
| ACCCTGAC | -0.151 |
| ACCACAGA | -0.279 |
| GGGACACA | -0.211 |
| CCTATGGA | -0.0947 |
| ACGAACCG | 0.0942 |
| ACTTATAT | -0.266 |
| CACAAGGC | 0.0112 |
| AATCTTAC | -0.0351 |
| TCTCCTAA | -0.328 |
| CCAAGGAG | -0.139 |
| CCACGCAC | 0.236 |
| CGATATGC | 0.0947 |
| ACGAGAGT | -0.127 |
| CAACGCGA | 0.121 |
| AGATCATG | -0.266 |
| ATGTACAA | -0.105 |

For quick reference, copied from above (sample 1):
| Sequence | E-score |
| --- | --- |
| ATCTAGGC | -0.0219 |
| CATATGCC | 0.0798 |
| CGTGTAGA | 0.0631 |
| CCAGCCTA | -0.27 |
| AAAGATCG | 0.0142 |
| GGGGACTA | -0.0967 |
